Results collected from several papers.
Each numbered part is a random draw from the data of one study; scales do not carry over between parts. Substitutions count along the parent as printed.

Study 1 — technique: protein-binding microarray; molecule type: double-stranded DNA, one strand shown; matrix: in vitro; tested at: 2540 nM top; setting: 60-bp whole probe; together with: salmon DNA 0.4 mg/ml; relative to: random background probes; reading: higher = stronger binding; shared flanks, not repeated: GCCTAGCAC … GTCTTGATTCGCTTGACGCTGCTG
Target: Interferon regulatory factor 3, full length, phosphomimetic (IRF3, Homo sapiens, UniProt Q14653, residues 1-427, S386D/S396D/S398D/S402D/T404D/S405D)
Construct (chain): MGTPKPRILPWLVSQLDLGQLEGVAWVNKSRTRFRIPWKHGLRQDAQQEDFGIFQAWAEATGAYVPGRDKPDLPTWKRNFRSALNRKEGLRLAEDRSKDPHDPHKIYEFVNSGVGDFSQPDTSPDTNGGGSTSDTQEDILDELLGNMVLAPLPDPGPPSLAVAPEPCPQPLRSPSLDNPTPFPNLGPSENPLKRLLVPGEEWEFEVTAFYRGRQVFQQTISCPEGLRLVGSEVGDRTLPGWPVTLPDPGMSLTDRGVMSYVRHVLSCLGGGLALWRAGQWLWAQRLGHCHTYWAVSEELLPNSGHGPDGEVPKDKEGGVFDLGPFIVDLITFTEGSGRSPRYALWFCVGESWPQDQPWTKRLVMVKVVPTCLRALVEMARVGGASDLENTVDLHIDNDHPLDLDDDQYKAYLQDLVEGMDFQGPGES
Strand | fitted relative affinity
GACGATCTCGGGTTTCGAGACGTGCTA | 0.932 z-score
GACGGTATCCTACAGCTGACGTGCTAG | 1.1 z-score
GACGGACTGGGTCTCCGGACGTGCTAG | -0.541 z-score
TGTCTTTTCACTTTCTTTAAGTGCTAG | 2.94 z-score
GTAGATATCGGGACTGGATTAGTGCTA | 0.0458 z-score
TTAGGTCTCCTGCTGCTTTAGTGCTAG | -0.262 z-score
TTAGGTCGCGGACTGGGTTAGTGCTAG | -0.619 z-score
GCCGGTTTCGGGTATCGGGACGTGCTA | 5.1 z-score
TTAGGATTCGACTATCGGTTAGTGCTA | 0.536 z-score
TCATATTTATTTTTACAACTGTGCTAG | 1.32 z-score
TTAGGCCTCCTTATCCTTTAGTGCTAG | 0.41 z-score
GACGATATCGGTATCGGGACGTGCTAG | 2.11 z-score
GGAGGGGGGCGGGGCGGTGGGTGCTAG | 0.0875 z-score
GACGGTCTAGGTATCGGGACGTGCTAG | 0.422 z-score
TTAGGTTTCGGTTGCGGTTAGTGCTAG | 6.3 z-score
GACGGTTTTGGACTGGGGACGTGCTAG | 1.11 z-score
TCATGGTTCTGCTTCTTACTGTGCTAG | 0.0566 z-score
GGAAAAATGATGTTTTAGGTCGTGCTA | 0.0885 z-score
TTAGGACTGGGTATCGGTCAGTGCTAG | -0.0442 z-score
GACTAACTGAGTATCGAGACGTGCTAG | 0.0596 z-score

Study 2 — technique: RNA Bind-n-Seq; molecule type: RNA; matrix: in vitro; tested at: not given; relative to: input RNA pool; reading: higher = stronger binding
Target: RING finger protein unkempt homolog, zinc fingers 1-6, GST-SBP tag (UNK, Homo sapiens, UniProt Q9C0B0, residues 30-357)
Setting: RNA with constant flanks, human-mouse chimeric sites, ends assumed
Shared flanks, not repeated: GGGAGUUCUACAGUCCGACGAUC … CAACAGAGGAUUGAGCAUCA
Construct (chain): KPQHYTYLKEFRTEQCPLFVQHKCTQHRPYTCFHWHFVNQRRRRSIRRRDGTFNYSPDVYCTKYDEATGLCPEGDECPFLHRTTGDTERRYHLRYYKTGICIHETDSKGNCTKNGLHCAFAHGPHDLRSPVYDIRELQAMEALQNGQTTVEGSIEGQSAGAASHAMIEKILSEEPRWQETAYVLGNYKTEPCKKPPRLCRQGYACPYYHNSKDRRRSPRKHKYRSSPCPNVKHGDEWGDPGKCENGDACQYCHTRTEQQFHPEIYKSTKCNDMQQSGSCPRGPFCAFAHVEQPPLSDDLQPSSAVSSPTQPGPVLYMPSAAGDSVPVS
Strand | bound/input enrichment [ratio]
AACAGAUUGUCUUUAAGCAUUCCAAGCAAUGCUUGGGAAAUAGUCAUUGUUGCCCAUGUGCCUUCUGACUGAGCUUUAAUGCUGUUCCAUGUUACAUCUUUCCUUCACUCCAGAAUUGUU | 0.212
CAGCCUCAGAGCCCAGACUUCCUGGACAUUACCAACCCUAAAGCGGUAUUAGAAAAUGCAUUGAGAAACUUCGCCUGUCUGACGACUGGAGAUGUGAUUGCUAUCAACUACAAUGAGAAG | 0.437
CUGUGUGUGCUGAAUAAAUGGCUUGUAAAGAAGUUUUUCCAAGCUGUAACCCAUGCUGUUAUUAUAGUUGCUGCAAAAUGUCUCUUAUGAUAUUGAUUUUAUUUGUUCUGACUCUCCCUC | 0.782
UUACCCGAAAAUGAAGAUGAAUUGGAGAGCACCAACAGGCGCUACACCAAGAGGGACUGCAGCACUUUCCUCAGAACUAGUGAGACGGGCAUCGUGGACCAGGUCAUGGUCACUCUCAAC | 0.243
GGCUGCUGGUGACUGUCCUGGAGUGGCCGUGUCACCGGCCGGAGCGCGCGCAGGUUAAUUUUAGAAAAUGCCAAGUAGGAAGUUUGUUGAGGGUGAAGUGGUCAGAGGCCGAUGGCCUGG | 1.46
CGGAGCCCUCCUCUCCCACAGGCCCAAGAUAUAACCCACCAGUGCCUUUUGUCUUCCCGUUAGCUUUGUCAAUCACGCCUGUCCUCUCACGCCCACACCAAGUGCCCAAAGUGGGGAGGG | 14.2
CUGAAAAACACAGAUAUCAAAGUUGUUGACUUUGGAAGUGCAACGUAUGAUGAUGAACAUCAUAGUACUUUGGUGUCUACCCGGCACUACAGAGCUCCCGAGGUCAUUUUGGCUCUAGGU | 0.264
GAUCAUGAACCACCAUCAGAAAUGAAGAUGAGAUUACCCAGACGAGCCAAAACAGCUGCGCUACAGAAAAGUAAACUUUAACCUUGCGAGUUCCUUAAUGAAGAUACUAAGUUAGGAAGC | 0.326
GUGCCCUUCUCGCUGCUGCGGAGCCCGAGCUGGGAACACCCCUUCCGCGACUGGUACGCACACAGCCGCCUCUUCGAUCAAGCUUUCGGGGUGCCCCGGUUGCCCGAUGAGUGGUCGCAG | 0.0951
UCGGAUGCUGUGCUGGGUCACUUUUCAUAUCCAGAUCCUUCACAGUGGACAGAUGAAGAAUUAGGUAUCCCUCCUGAUGACGAGGACUGACACUGUAAACUCUCUGGACGAGUAGGAGCA | 0.756
AUUGUUGAAGCGAAUCCACUUUUAGAAGCAUUUGGAAAUGCGAAGACUGUUCGCAACAAUAAUAGCAGUCGAUUUGGGAAAUUUGUAGAAAUUCAUUUCAAUGAAAAGAGUUCGGUUGUU | 0.38

Study 3 — technique: RNAcompete; molecule type: RNA; matrix: in vitro; tested at: 20 nM; setting: 7-mer, probes averaged, single round; relative to: mean of 7-mers; reading: higher = stronger binding
Target: PABPC1L2, full length, GST fusion (mouse, UniProt A0ABA7IW68)
Residues (chain): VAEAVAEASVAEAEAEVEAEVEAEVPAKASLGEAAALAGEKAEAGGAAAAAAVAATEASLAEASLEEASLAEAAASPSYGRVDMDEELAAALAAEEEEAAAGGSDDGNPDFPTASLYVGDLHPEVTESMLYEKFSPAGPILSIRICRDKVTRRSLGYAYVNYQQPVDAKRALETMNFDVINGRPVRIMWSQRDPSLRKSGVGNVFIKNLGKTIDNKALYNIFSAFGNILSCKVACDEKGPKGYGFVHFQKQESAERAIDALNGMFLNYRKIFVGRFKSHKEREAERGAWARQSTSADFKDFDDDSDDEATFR
Strand | 7-mer Z-score
CCGGAUU | -0.266
ACAUCUU | -0.302
AGCCCCG | -0.316
GCGAGGG | 0.309
ACUUACU | -0.0645
UUGUCUC | -0.412
AUUCUAG | -0.211
GCCCCAU | -0.505
AUCGAAG | 0.0116
ACUCCUC | -0.374
GCCAUCA | -0.0772
GUUGGUC | -0.264
UGCCCCA | -0.184
ACGCGGU | -0.0391
GACUAAG | 0.0352
CGAAGAA | 0.365
GGCAUGA | 0.0587
UGCGAGA | 0.0841
UCAUAUG | -0.153
UGGGCUC | -0.155
CAUUCCG | -0.28
GGAUUUA | 0.403
CUAUCGC | -0.277
ACAUCAA | 0.106

Study 4 — target: CCND2, cyclin fold, Cln2 fusion (human); technique: yeast growth competition, sequencing; matrix: yeast; setting: weak parent motif; relative to: not given; reading: higher = stronger binding
Starting sequence: RBL1 docking peptide (human); GSAKRRLFGEDPP; partner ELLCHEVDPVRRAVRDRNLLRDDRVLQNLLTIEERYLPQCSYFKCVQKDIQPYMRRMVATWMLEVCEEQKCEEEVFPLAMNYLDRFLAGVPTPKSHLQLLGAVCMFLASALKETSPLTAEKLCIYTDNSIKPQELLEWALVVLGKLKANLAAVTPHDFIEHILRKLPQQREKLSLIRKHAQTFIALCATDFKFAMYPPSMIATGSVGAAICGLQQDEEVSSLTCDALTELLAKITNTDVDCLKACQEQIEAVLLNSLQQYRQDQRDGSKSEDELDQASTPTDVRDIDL
Substitution | normalised enrichment score
GSAKRRLFYEDPP [G9Y] | 0.194
GSALRRLFGEDPP [K4L] | -0.184
GSAKRRLFGEDNP [P12N] | 0.0331
GSAKRRLFGLDPP [E10L] | 0.344
GSAKRRLRGEDPP [F8R] | -0.121
GSAKRRLFGEDPT [P13T] | 0.148
GSAKRRLFCEDPP [G9C] | 0.632
GSLKRRLFGEDPP [A3L] | -0.0579
GSAKRRLMGEDPP [F8M] | 0.37
GSAKYRLFGEDPP [R5Y] | 0.503
GSAKRRLFREDPP [G9R] | 0.0198
GSHKRRLFGEDPP [A3H] | 0.351
GSAKRRLIGEDPP [F8I] | 0.429
GSAKRRLFGPDPP [E10P] | 0.117
GSAKFRLFGEDPP [R5F] | 0.194
GSAKRRLFQEDPP [G9Q] | 0.409
GSAKRRLFGNDPP [E10N] | 0.187
GWAKRRLFGEDPP [S2W] | -0.299
GSAKRRVFGEDPP [L7V] | 0.553
GKAKRRLFGEDPP [S2K] | -0.171
GSAKRRLFGEDPW [P13W] | 0.716
GSAKIRLFGEDPP [R5I] | -0.0192
GSAQRRLFGEDPP [K4Q] | 0.119
GSAMRRLFGEDPP [K4M] | 0.385
GSAKRRLFGRDPP [E10R] | 0.254

Study 5 — technique: DHFR PCA, deep sequencing; matrix: yeast; together with: (+)-ABA 710 µM; relative to: wild-type fitted maximum; reading: higher = stronger binding
Target: ABI1, truncated, D143A, DHFR fusion (Arabidopsis thaliana)
Setting: methotrexate growth selection, single substitutions
Starting sequence: PYL1, truncated, DHFR fusion (Arabidopsis thaliana); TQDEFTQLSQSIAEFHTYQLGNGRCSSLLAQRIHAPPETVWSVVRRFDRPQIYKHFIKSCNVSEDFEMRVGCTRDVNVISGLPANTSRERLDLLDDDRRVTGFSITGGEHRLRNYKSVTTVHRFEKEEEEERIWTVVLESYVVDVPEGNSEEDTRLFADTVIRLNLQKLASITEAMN; partner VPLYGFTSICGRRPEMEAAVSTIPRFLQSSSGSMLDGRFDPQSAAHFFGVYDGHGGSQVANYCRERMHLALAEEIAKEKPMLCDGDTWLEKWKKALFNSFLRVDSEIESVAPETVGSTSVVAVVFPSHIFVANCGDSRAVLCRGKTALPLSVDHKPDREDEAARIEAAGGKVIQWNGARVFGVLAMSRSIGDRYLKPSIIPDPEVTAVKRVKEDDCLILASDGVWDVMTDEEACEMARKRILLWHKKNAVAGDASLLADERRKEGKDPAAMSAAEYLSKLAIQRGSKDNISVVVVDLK
Substitution | relative binding score [%]
S117G | 85.4
L112R | -0.716
L156S | 102
I33S | 47.8
L91A | 27
K126H | 113
K58W | 84.2
K168C | 99.8
V121K | 6.45
R163F | 53.9
H110E | 22.7
R49N | 104
T101D | -20
R69C | 103
T173M | 92.2

A few entries again (study 3):
Strand | 7-mer Z-score
ACAUCUU | -0.302
AGCCCCG | -0.316
GCGAGGG | 0.309
ACUUACU | -0.0645
UUGUCUC | -0.412
AUUCUAG | -0.211
GCCCCAU | -0.505
AUCGAAG | 0.0116
ACUCCUC | -0.374
GCCAUCA | -0.0772
GUUGGUC | -0.264
UGCCCCA | -0.184
ACGCGGU | -0.0391
GACUAAG | 0.0352
CGAAGAA | 0.365
